Experimental data collected from several papers.
BRD4 BD2: Bromodomain-containing protein 4, BD2 (BRD4, Homo sapiens, UniProt O60885)
BRD4 BD1: Bromodomain-containing protein 4, BD1 (BRD4, Homo sapiens, UniProt O60885)

Structure (SMILES) | target | test | system | setting | quantity | result
Cn1cc(-c2cc(N3CCCCS3(=O)=O)ccc2N[C@H]2CC[C@](C)(O)CC2)c2cc[nH]c2c1=O | BRD4 BD2 | cell-free assay, TR-FRET |  |  | IC50 | 4.92 nM
Cc1nc(S(=O)(=O)Nc2cc3c(cc2Oc2cccc(COCC(C)C)c2)n(C)c(=O)n3C)cn1C | BRD4 BD1 |  |  |  | IC50 | > 17100 nM
Cn1cc(-c2cc(N3CCCS3(=O)=O)ccc2N[C@H]2CC[C@@](C)(O)CC2)c2cc[nH]c2c1=O | BRD4 BD2 | cell-free assay, TR-FRET |  |  | IC50 | 2.43 nM
O=C1CCCN1c1cccc(NS(=O)(=O)c2ccc(F)c(Cl)c2)c1 | BRD4 BD1 | binding, differential scanning fluorimetry |  |  | IC50 | 25600 nM
Cc1sc2c(c1C)C(c1ccc(Cl)cc1)=N[C@@H](CC(=O)NCCN(C)CCCCNC(=O)CCCCOc1cccc3c1C(=O)N([C@H]1CCC(=O)NC1=O)C3=O)c1nnc(C)n1-2 | Bromodomain-containing protein 4, long isoform (BRD4, Homo sapiens, UniProt O60885) | degrader, Western blot, refers to: BRD4 long isoform | MV4-11 |  | DC50 | 27.9 nM
Cc1cc2c(cc1N)n(C)c(=O)n2C | BRD4 BD2 |  |  |  | IC50 | > 14800 nM
O=C1CCCN1c1cccc(NS(=O)(=O)c2c(F)cccc2F)c1 | BRD4 BD1 | binding, differential scanning fluorimetry |  |  | IC50 | 21100 nM
Cc1ncsc1-c1ccc(CNC(=O)[C@@H]2C[C@@H](O)CN2C(=O)[C@@H](NC(=O)COCC(C)(COCCOCCOCCNC(=O)C[C@@H]2N=C(c3ccc(Cl)cc3)c3c(sc(C)c3C)-n3c(C)nnc32)COCCOCCOCCNC(=O)C[C@@H]2N=C(c3ccc(Cl)cc3)c3c(sc(C)c3C)-n3c(C)nnc32)C(C)(C)C)cc1 | Bromodomain-containing protein 4, short isoform (BRD4, Homo sapiens, UniProt O60885) | binding, BROMOscan |  | full-length protein | Kd | 0.083 nM
COc1cc(-c2cc(C(C)=O)n3ccccc23)c(OC)cc1Cn1ccnc1 | BRD4 BD1 | inhibitor |  |  | IC50 | 16000 nM
O=C1CCCN1c1cccc(NS(=O)(=O)c2cc(Br)ccc2Br)c1 | BRD4 BD1 | binding, differential scanning fluorimetry |  |  | IC50 | 43700 nM
CC(=O)N1c2ccc(-c3ccc(CNC(=O)c4cn5cc(-c6cnc(N)nc6)nc(N6CCOCC6)c5n4)cc3)cc2CC[C@@H]1C | BRD4 BD1 | binding, competition with immobilised ligand |  |  | Kd | 52 nM
Cc1sc2c(c1C)C(c1ccc(Cl)cc1)=N[C@@H](CC(=O)NCC(=O)N1CCC3(CCC(C(=O)N4CCN(C(=O)c5cc(Cc6n[nH]c(=O)c7ccccc67)ccc5F)CC4)CC3)CC1)c1nnc(C)n1-2 | BRD4 (Homo sapiens, UniProt O60885) | target engagement, HiBiT dBET6 competition | Jurkat HiBiT-tagged cells |  | EC50 | 1390 nM
Cc1cnc(Nc2ccc(C3CCN(C)CC3)c(F)c2)nc1Nc1ccc(Cl)c(NS(=O)(=O)C(C)(C)C)c1 | BRD4 BD1 | cell-free assay, AlphaScreen |  |  | IC50 | 14.9 nM

Some of these lines once more:
Structure (SMILES) | target | test | system | setting | quantity | result
Cc1nc(S(=O)(=O)Nc2cc3c(cc2Oc2cccc(COCC(C)C)c2)n(C)c(=O)n3C)cn1C | BRD4 BD1 |  |  |  | IC50 | > 17100 nM
Cn1cc(-c2cc(N3CCCS3(=O)=O)ccc2N[C@H]2CC[C@@](C)(O)CC2)c2cc[nH]c2c1=O | BRD4 BD2 | cell-free assay, TR-FRET |  |  | IC50 | 2.43 nM
